Results from different studies.
Each line is one published result; not all experiments were run side by side. Numbers after ± are the reported error.

C[C@H](O)[C@@H](NC(=O)[C@H]1CCCN1C(=O)[C@@H](CCCCN)NC(=O)[C@@H](CO)NC(=O)[C@@H](Cc1ccc(O)cc1)NC(=O)[C@@H](CC(N)=O)NC(=O)CCOCCOCCOCCNC(=O)CN1CCN(CC(=O)O)CCN(CC(=O)O)CCN(CC(=O)O)CC1)C(=O)N[C@H](CC(=O)O)C(=O)N[C@H](CCCNC(=N)N)C(=O)N[C@H](CCC(N)=O)C(=O)N[C@H](Cc1ccc(O)cc1)C(=O)N[C@H](Cc1c[nH]cn1)C(=O)N[C@H](Cc1ccccc1)C(N)=O [gallium-68 labelled] gave a tissue uptake of 0.09 ± 0.02 %ID/g (BALB/c nude mice U-87 MG tumour, lung; intravenous, 1.85 MBq, 2 h, radiolabelled).
CC(C)C[C@@H](NC(=O)[C@@H](CCCNC(=N)N)NC(=O)[C@@H](Cc1c[nH]cn1)NC(=O)[C@@H](Cc1c[nH]c2ccccc12)NC(=O)[C@@H](Cc1c[nH]cn1)NC(=O)[C@@H](Cc1ccccc1)NC(=O)[C@H](NC(=O)[C@@H](Cc1ccc(O)cc1)NC(=O)CNC(=O)CNC(=O)CCOCCOCCOCCNC(=O)CN1CCN(CC(=O)O)CCN(CC(=O)O)CC1)[C@H](C)O)C(=O)N[C@H](CC(N)=O)C(=O)N1CCC[C@@H]1C(=O)O [gallium-68 labelled] gave a tissue uptake of 1.13 ± 0.32 %ID/g (C57BL/6 mice, male, lung; intravenous, 1.85 MBq, 60 min, with: GP12 blocking).
The tissue uptake of CC[C@H](C)[C@H](NC(=O)[C@H](CCCCN)NC(=O)CNC(=O)[C@H](CC(C)C)NC(=O)[C@H](Cc1ccccc1)NC(=O)[C@H](CCCCN)NC(=O)[C@H](CO)NC(=O)[C@H](Cc1ccccc1)NC(=O)[C@H](Cc1c[nH]c2ccccc12)NC(=O)[C@H](CCC(N)=O)NC(=O)[C@@H](NC(=O)[C@H](Cc1ccccc1)NC(=O)CCCCCNC(=O)CN1CCN(CC(=O)O)CCN(CC(=O)O)CCN(CC(=O)O)CC1)C(C)C)C(=O)N[C@@H](CCC(=O)O)C(=O)N1CCC[C@H]1C(=O)N[C@@H](CC(=O)O)C(=O)N[C@H](C(=O)N[C@@H](CO)C(=O)N[C@@H](CCC(N)=O)C(=O)N[C@H](C(=O)N[C@@H](CCC(N)=O)C(=O)N[C@@H](CC(=O)O)C(=O)N1CCC[C@H]1C(=O)N[C@@H](CC(N)=O)C(=O)N[C@@H](CC(=O)O)C(=O)N[C@@H](CCC(N)=O)C(=O)N[C@@H](Cc1ccc(O)cc1)C(=O)N[C@@H](CCC(=O)O)C(=O)N1CCC[C@H]1C(=O)N[C@@H](Cc1ccccc1)C(=O)O)C(C)C)C(C)C [copper-64 labelled] is reported as 1.84 ± 0.8 %ID/g (C57BL/6 mice, male, tumour-free, pancreas; 1 h).
For [2H]C([2H])([18F])[C@]([2H])(N)C(=O)O, the tissue uptake was 0.86 ± 0.08 %ID/cc (PET; athymic nude mice, U-87 MG, tumor; dose not given, 60 min post-injection).
For CCCC[C@H]1C(=O)N(C)[C@@H](CCCC)C(=O)N[C@@H](CCCNC(=O)CN2CCN(CC(=O)O)CCN(CC(=O)O)CCN(CC(=O)O)CC2)C(=O)N[C@H](C(=O)NCC(N)=O)CSCC(=O)N[C@@H](Cc2ccc(O)cc2)C(=O)N(C)[C@@H](C)C(=O)N[C@@H](CC(N)=O)C(=O)N2CCC[C@H]2C(=O)N[C@@H](Cc2c[nH]cn2)C(=O)N[C@@H](CC(C)C)C(=O)N(C)CC(=O)N[C@@H](Cc2c[nH]c3ccccc23)C(=O)N[C@@H](CO)C(=O)N[C@@H](Cc2c[nH]c3ccccc23)C(=O)N1C [gallium-68 labelled], the tissue uptake was 2.65 ± 0.81 %ID/g (NOD/SCID mice with CHO-hPD-L1 xenograft, intestine; 10 min post injection).
CC[C@H](C)[C@H](NC(=O)[C@@H](Cc1c[nH]c2ccccc12)NC(=O)[C@@H]1CCCN1C(=O)[C@H](CCCCN)NC(=O)[C@H](CCCCN)NC(=O)CCNC(=O)CCNC(=O)CN1CCN(CC(=O)O)CCN(CC(=O)O)CCN(CC(=O)O)CC1)C(=O)N[C@@H](C[Si](C)(C)C)C(=O)O [gallium-68 labelled] gave a tissue uptake of 0.3 ± 0.13 %ID/g (ex vivo biodistribution; nude mice, HT-29 xenograft, pancreas; 90 min, with: levocabastine 0.5 µmol).
With CC[C@H](C)[C@H](NC(=O)[C@H](CCCNC(=N)N)NC(=O)[C@H](CCCCN)NC(=O)[C@H](Cc1ccc(O)cc1)NC(=O)[C@H](CC(=O)O)NC(=O)[C@H](C)NC(=O)CNC(=O)CCOCCOCCOCCNC(=O)CN1CCN(CC(=O)O)CCN(CC(=O)O)CCN(CC(=O)O)CC1)C(=O)N[C@H](C(=O)N[C@@H](CC(C)C)C(=O)N[C@@H](CCCCN)C(=O)N[C@H](C(=O)N[C@@H](CC(N)=O)C(N)=O)C(C)C)[C@@H](C)O [copper-64 labelled] the tissue uptake was 0.577 ± 0.124 %ID/g (ex vivo gamma counting; C57BL/6J male mice, B16-F10 tumour, bone; intravenous, 1.85 MBq, 100 min).
CSCC[C@H](NC(=O)CNC(=O)[C@H](CCCCN)NC(=O)[C@H](CC(C)C)NC(=O)[C@@H]1CCCN1C(=O)[C@H](CO)NC(=O)[C@H](Cc1c[nH]cn1)NC(=O)[C@H](Cc1c[nH]c2ccccc12)NC(=O)[C@H](CCCNC(=N)N)NC(=O)[C@H](CC(C)C)NC(=O)[C@H](CCCNC(=N)N)NC(=O)[C@H](Cc1c[nH]c2ccccc12)NC(=O)[C@H](CS)NC(=O)CCCCCNC(=O)CN1CCN(CC(=O)O)CCN(CC(=O)O)CCN(CC(=O)O)CC1)C(=O)O [copper-64 labelled] has a tissue uptake of 1.47 %ID/g (ex vivo biodistribution; male C57BL/6J mice, pancreas; intravenous, 1.85 MBq, 2 h, B16-F10 tumour-bearing).

A few entries again:
For [2H]C([2H])([18F])[C@]([2H])(N)C(=O)O, the tissue uptake was 0.86 ± 0.08 %ID/cc (PET; athymic nude mice, U-87 MG, tumor; dose not given, 60 min post-injection).
